Results gathered from unrelated publications.
Numbered parts are unrelated; each lists some results of a single study. Positions count from the first letter of the parent shown.

Series 1 — technique: RNA Bind-n-Seq; molecule type: RNA; matrix: in vitro; tested at: 365 nM; reference: no-protein control; reading: higher = stronger binding; measurement: RBNS enrichment (R)
Target: RNA binding protein fox-1 homolog 2, RRM domain, GST-SBP tag (RBFOX2, Homo sapiens, UniProt O43251-10, residues 100-194)
Notes: natural RNA segment, single round, ends assumed
Constant ends, left off below: GGGAGUUCUACAGUCCGACGAUC … UGGAAUUCUCGGGUGCCAA
Target sequence (chain): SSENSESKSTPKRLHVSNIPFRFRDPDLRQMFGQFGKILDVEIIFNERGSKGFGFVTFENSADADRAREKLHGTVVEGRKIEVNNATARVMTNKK
GUGUUGUAAGGCCUAUGCCAAGGAUAAAGGAAGGGUAUGCCUUUGGGUACUCCAGGCACACACCUUUCUGAAAUCCUUCUCCAGCCAGCUGCUGCAGACAAAAGAUCACA: 0.288
GGGUGCUUCUGUCUCCUGCAGACCACGCCAGGGAGUGCAGACACCACCGUCACACACGCCCCUUUUGUGUUUUGGUUCAAGUUUCUCAGAGCCCCUCAGAGCUUCUACAU: 0.3
CACCCUCCCUGGAACCACACCAGAAAGAGACCUGGGUUGUCGUUUUCUUGCUUUUUGUUUUGUUUUGUUUUAUUAUUUUCAUAUCACCUCCAUCCCAUAAAGUUGUACUG: 0.394
GGAGCUACUCAUCCCCAGCAGUUAGCGCUCCGCCCCGGUUGACUCUUGAUGGCUUUGCGGAGCCCCUGCAAAGUGUCACUAGUCAAUGGGAACAAGAGGAAUGUCCCCUG: 0.285
GAAUAAAACAACUGCCUGAUUCUAGGGUUUUCCAUUAAUAGACAGCCAUUGUUCUCUCUGGACCACAGCCUGGAAGCUACUCUAAUUCCCUUUUUCUACAUAUGUGUAGA: 0.363
UUAUGGCAGAUUUCAAGAUCACGUGACAAUGCAGUCUCUAAUUGUUCACUGUCCAUAUAUAUGAUUUUACGGAAUUAUGAAUUUUUCUGAUGAGUGUUGUAUAGAUGAUU: 0.871
AAAGUUAACCUCAUAAUCUUGGAACUUGGGCUCCAACCCUUAUGAUUGUGGAGUGUUUACUAGAUACAUAAUGAGGUGCUAAGUUGUGGGGAAGUCUCAUGUAACUCAGA: 0.507
GACGCAAAUGAUGUUUAAGAGAGCCUUGUGAUUUGUAGCAAGCAUGGGCACUGCUUUUUCUUACUAAUGUGGUAGAUCUACACGAACAUUCUAGGCUGUUCUGCUCAGAG: 0.785
CUGCCGCUGAGAAGGGUUGAUCCUGCAUCUGGGUUUGUUUACAGCAAUUCCUGGACUCGGGGGUAUUUUGGUCACAGGGUGGUUUUGGUUUAGGGGGUUUGUUUGUUGGG: 1.94
AGAAUUGCAUUCAUGGCUUUCAAUUGUAAAUAUGCUAAGGGUAUUUUAAUAAAUCUUGGUUUCAUGUCAUCUGGUGUGCAAUGCAGAUUUGUUUUCAGGAGGCAUGUAAA: 1.06
CAAAUCCUAGAGCCAGCUGAUAAUAUUUAAUAAUCUGGAGGAGAGAAUAAUGAUGUACCAAUAAGUGGAGAUUCCUCCUUAUGAUGUAUGCUAGGUUAUGGAAGAUGUAA: 2.83
AUAAUCACGCCACUGCACUCCAGCCUGGGCUGCAGGGUGAGGUCCUGUCUCUGGAAAAAAAAAAAAAAAAAAAAGGAAUAGGUAAAAGGGACAGAGGUGAAAUUUUGAGU: 0.704

Series 2 — target: UBE2G2 UBC core domain (UniProt P60604); technique: yeast two-hybrid; matrix: yeast; notes: mostly zero background; reference: not given; reading: higher = stronger interaction; measurement: lacZ reporter activity
Chain of UniProt P60604 (whole entry, looked up): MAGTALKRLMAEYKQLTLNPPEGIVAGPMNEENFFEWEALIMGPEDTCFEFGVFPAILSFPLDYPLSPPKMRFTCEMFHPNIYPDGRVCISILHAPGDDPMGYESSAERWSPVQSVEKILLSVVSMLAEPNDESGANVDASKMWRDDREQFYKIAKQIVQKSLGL
B1: SHPRH RING domain (UniProt Q149N8); chain KTSGGVNPEPCPICARQLGKQWAVLTCGHCFCNECISIIIEQYSVGSHRSSIKCAICRQTTSHKEISY
B2: RNF17 RING domain (UniProt Q9BXT8); chain SQPWGAAEIQCTRCGRRVSRSSGHHCELQCGHAFCELCLLMTEECTTIICPDCEVATAVNTRQR
B3: TRIM47 RING domain (UniProt Q96LD4); chain MDGSGPFSCPICLEPLREPVTLPCGHNFCLACLGALWPHRGASGAGGPGGAARCPLCQEPFPDGLQLR
B4: NHLRC1 RING domain (UniProt Q6VVB1); chain MREAEISLLECKVCFEKFGHRQQRRPRNLSCGHVVCLACVAALAHPRTLALECPFCRRACRGCDTSD
B5: RNF32 RING domain (UniProt Q9H0A6); chain VQALRRETHECSICLAPLSAAGGQRVGAGRRSREMALLSCSHVFHHACLLALEEFSVGDRPPFHACPLCRSCYQKKILEC
B1 (SHPRH RING domain): 0
KITELNPHLMCALCGGYFIDATTIVECLHSFCKTCIVRYLETNKYCPMCDVQVHKTRPLL (PCGF2 RING domain (UniProt P35227)): 0
B2 (RNF17 RING domain): 0
B3 (TRIM47 RING domain): 17800
B4 (NHLRC1 RING domain): 0
AAQLLEEKLTCAICLGLYQDPVTLPCGHNFCGACIRDWWDRCGKACPECREPFPDGAELR (TRIM65 RING domain (UniProt Q6PJ69)): 0
GSEEEEIPFRCFICRQAFQNPVVTKCRHYFCESCALEHFRATPRCYICDQPTGGIFNPA (RNF113B RING domain (UniProt Q8IZP6)): 0
B5 (RNF32 RING domain): 0

Series 3 — target: CCND2, cyclin fold, Cln2 fusion (human); technique: yeast growth competition, sequencing; matrix: yeast; notes: strong parent motif; reference: not given; reading: higher = stronger binding; measurement: normalised enrichment score
Starting sequence: PKN2 docking peptide (human); VSAVRKLDFSDTM; partner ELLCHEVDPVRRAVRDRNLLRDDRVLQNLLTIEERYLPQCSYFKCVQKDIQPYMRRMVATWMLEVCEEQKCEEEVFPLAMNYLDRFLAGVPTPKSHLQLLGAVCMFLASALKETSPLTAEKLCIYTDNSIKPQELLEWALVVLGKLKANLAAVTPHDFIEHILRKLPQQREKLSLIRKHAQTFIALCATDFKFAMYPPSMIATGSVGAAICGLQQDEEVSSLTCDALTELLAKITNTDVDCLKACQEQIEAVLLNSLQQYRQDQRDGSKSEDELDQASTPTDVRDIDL
S10M: 2.47
D8L: 0.378
S2M: 1.75
R5E: 0.23
R5Y: 1.07
K6S: 1.45
T12M: 2.93
V4E: 0.439
S10A: 3.35
D11F: 2.44
D8R: 0.671
L7C: 0.0374
D8A: 1.31
T12C: 3.42
R5C: 1.5
S2N: 2.89
K6A: 1.71
V4H: 0.588
R5M: 1.27
A3C: 2.19
T12W: 3.32
R5G: -0.105
F9E: 0.355
S10G: 3.51
F9I: 0.485

Series 4 — technique: protein-binding microarray; molecule type: double-stranded DNA, one strand shown; matrix: in vitro; tested at: 2540 nM top; notes: 60-bp whole probe; with: salmon DNA 0.4 mg/ml; reference: random background probes; reading: higher = stronger binding; measurement: fitted relative affinity; constant ends, left off below: GCCTAGCAC … GTCTTGATTCGCTTGACGCTGCTG
Target: Interferon regulatory factor 3, full length, phosphomimetic (IRF3, Homo sapiens, UniProt Q14653, residues 1-427, S386D/S396D/S398D/S402D/T404D/S405D)
Residues (chain): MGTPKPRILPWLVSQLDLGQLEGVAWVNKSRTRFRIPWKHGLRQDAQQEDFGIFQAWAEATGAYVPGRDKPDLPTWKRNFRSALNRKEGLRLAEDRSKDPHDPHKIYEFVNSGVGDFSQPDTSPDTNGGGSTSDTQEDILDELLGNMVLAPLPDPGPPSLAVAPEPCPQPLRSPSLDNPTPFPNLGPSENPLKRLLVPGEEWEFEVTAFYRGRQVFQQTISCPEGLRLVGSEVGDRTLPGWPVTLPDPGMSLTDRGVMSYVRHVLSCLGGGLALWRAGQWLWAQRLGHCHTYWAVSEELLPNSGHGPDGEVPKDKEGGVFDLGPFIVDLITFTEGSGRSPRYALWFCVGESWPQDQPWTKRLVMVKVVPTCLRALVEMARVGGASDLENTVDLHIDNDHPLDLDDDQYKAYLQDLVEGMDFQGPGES
CACTCTCTACATGTGTTTAAGTGCTAG: 1.58 z-score
GACGGTCCCGGTCTCGGGACGTGCTAG: 0.459 z-score
GACGATTTCGGGACTGGAGATGTGCTA: 1.87 z-score
TCAACCATCTAGTTCTGACTGTGCTAG: 0.611 z-score
TCACTCCTCTCTCTTTCACTGTGCTAG: 0.789 z-score
GAAGGTATCGACACTGGGGACGTGCTA: 0.013 z-score
TTAGGTTTCGGTTCAGGTTAGTGCTAG: 8.89 z-score
TTAGGTTTCGGACTGGATTAGTGCTAG: 4.38 z-score
TTAGATATCAGTCTCGATTAGTGCTAG: 1.37 z-score
GTCGATCTCAGTTTCGAGACGTGCTAG: 3.52 z-score
TTAGGACTGGGTTTCGGGTAGTGCTAG: 0.889 z-score
TTAGAACTGTGGACTGGATTAGTGCTA: -0.628 z-score
TTAGGTCTCGGAATGGGTTAGTGCTAG: 0.288 z-score
GGCGGTCTCGGTCTCGGGACGTGCTAG: 0.95 z-score
TTAGGACTGGGTCTCCGTTAGTGCTAG: -0.561 z-score
GACCGTTTCCTACTGCTGACGTGCTAG: 4.19 z-score
TCACCTCTTTTTTTGGTACTGTGCTAG: 0.905 z-score
GTCGGACTGGGTCTCGGGACGTGCTAG: -0.349 z-score
TTAGGACTGGGGTTGCGGTTAGTGCTA: -0.0617 z-score
TCATCTTTCCACTTGTCACTGTGCTAG: 2.08 z-score
GACGATTTCAGTTCCGAGGCGTGCTAG: 2.73 z-score
TTTTTTTTTTTTTTTTTTACGTGCTAG: 1.55 z-score
GACGGTTCCGGTTTCTGGACGTGCTAG: 5 z-score
ATATGTATATATGTGTATATGTGCTAG: 0.561 z-score
CTTTTTTTCAAGAAACAGTTCGTGCTA: 2.81 z-score

Series 5 — technique: RNAcompete; molecule type: RNA; matrix: in vitro; tested at: 20 nM; notes: 7-mer, probes averaged, single round; reference: mean of 7-mers; reading: higher = stronger binding; measurement: 7-mer Z-score
Target: PABPC1L2, full length, GST fusion (mouse, UniProt A0ABA7IW68)
Target sequence (chain): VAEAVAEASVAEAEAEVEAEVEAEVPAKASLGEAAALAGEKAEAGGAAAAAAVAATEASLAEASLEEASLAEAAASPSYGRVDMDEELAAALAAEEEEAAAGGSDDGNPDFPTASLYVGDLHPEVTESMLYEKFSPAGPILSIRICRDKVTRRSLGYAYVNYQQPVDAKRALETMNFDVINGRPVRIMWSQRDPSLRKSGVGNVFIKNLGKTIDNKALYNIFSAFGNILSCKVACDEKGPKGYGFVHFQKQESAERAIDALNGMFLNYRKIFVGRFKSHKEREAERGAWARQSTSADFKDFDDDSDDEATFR
AUACCUC: -0.264
UGCCGUA: -0.36
UCGCACA: -0.222
CCCCCCG: -0.465
CGAAGCA: -0.079
AGUAUUU: -0.177
GAUGAUU: -0.284
GACUACC: -0.151
CCAUUCA: -0.295
AACUGCC: 0.195
UGAGGAA: 0.148
GGAUUUG: -0.206
CUUUGAG: -0.0464
GCCUAUC: -0.264

Some of these lines once more (series 3):
S10M: 2.47
D8L: 0.378
S2M: 1.75
R5E: 0.23
R5Y: 1.07
